Experimental data from different studies.
Protocols differ between the studies behind these lines. ± marks the error that the study gave.
Organism: Hepatitis C virus

COC(=O)N[C@H](C(=O)N1CCC[C@H]1c1ncc(-c2ccc(-c3ccc(-c4cnc([C@@H]5CCCN5C(=O)[C@@H](NC(=O)OC)C(C)C)[nH]4)cc3)cc2)[nH]1)C(C)C — EC50 (replicon replication, transient replicon; genotype 1a wild type): 0.0059 ± 0.0037 nM
O=C(NCCCN1CCCCC1)c1ccc2c(=O)n(CCc3ccccc3)c(=O)[nH]c2c1 — maximal response (HCV infection, Gaussia luciferase reporter; Huh7.5.1 reporter cells; relative to: 10 µM cyclosporin A, DMSO, negative means inhibition): -83.3%
CCC[C@H](NC(=O)[C@@H]1[C@H]2CCC[C@H]2CN1C(=O)[C@@H](NC(=O)[C@@H](NC(=O)c1cnccn1)C1CCCCC1)C(C)(C)C)C(=O)C(=O)NC1CC1 — EC50 (viral replication; Ava5 replicon cells, genotype 1b Con1 subgenomic): 250 ± 24 nM
COC(=O)N[C@H](C(=O)N1CCC[C@H]1c1nc(-c2ccc(-c3ccc(-c4c[nH]c([C@@H]5CCCN5C(=O)[C@@H](NC(=O)OC)C(C)C)n4)cc3)cc2)c[nH]1)C(C)C — EC50 (replicon replication; Huh7-Lunet/T7, subgenomic reporter replicon; 24 h, added 4 h post-transfection): < 0.006 nM
CCC1CCCCN1CCCNC(=O)C1CCN(Cc2nc(-c3ccc(Cl)cc3)oc2C)CC1 (centres unmarked) — maximal response (HCV infection, Gaussia luciferase reporter; Huh7.5.1 reporter cells; relative to: 10 µM cyclosporin A, DMSO, negative means inhibition): -80.8%
O=c1cc(OCc2cccc(Cl)c2)oc2ccc(OCc3cccc(Cl)c3)c(O)c12 — EC50 (viral replication, inhibitor; Huh-7, GETYPE1; 96 h, replicon): 17000 to 24000 nM
CC(C)(C)OC(=O)N[C@H]1CCCCC/C=C\[C@@H]2C[C@@]2(C(=O)NS(=O)(=O)C2CC2)NC(=O)[C@@H]2C[C@@H](OC(=O)N3Cc4cccc(F)c4C3)CN2C1=O — EC50 (viral replication, inhibitor; Huh7.5, GETYPE1B; 72 h, replicon): 2 nM
CC(C)(C)[C@H](NC(=O)[C@@H](NC(=O)c1cnccn1)C1CCCCC1)C(=O)N1CC2(Cc3ccccc3C2)C1C(=O)NC(CC1CCC1)C(=O)C(=O)NC1CC1 (some centres unmarked) — EC50 (viral replication, inhibitor; Huh-7; replicon): 800 nM
O=c1cc(OCc2ccc(Cl)cc2)oc2ccc(OCc3cccc(Cl)c3)c(O)c12 — EC50 (viral replication, inhibitor; Huh-7, GETYPE1; 96 h, replicon): 17000 to 24000 nM
CCCCCn1c(=O)[nH]c2cc(C(=O)NC3CCN(Cc4ccccc4)CC3)ccc2c1=O — maximal response (HCV infection, Gaussia luciferase reporter; Huh7.5.1 reporter cells; relative to: 10 µM cyclosporin A, DMSO, negative means inhibition): 12.5%
Clc1ccc(Cn2c(CN3CCCC3)nc3ccccc32)cc1 — sensitivity of resistant replicon (replicon colony formation; Huh7.5 transfected with replicon RNA, W55R NS4B mutant; 8 µM): no effect

Excerpt of the above:
O=C(NCCCN1CCCCC1)c1ccc2c(=O)n(CCc3ccccc3)c(=O)[nH]c2c1 — maximal response (HCV infection, Gaussia luciferase reporter; Huh7.5.1 reporter cells; relative to: 10 µM cyclosporin A, DMSO, negative means inhibition): -83.3%
CC(C)(C)OC(=O)N[C@H]1CCCCC/C=C\[C@@H]2C[C@@]2(C(=O)NS(=O)(=O)C2CC2)NC(=O)[C@@H]2C[C@@H](OC(=O)N3Cc4cccc(F)c4C3)CN2C1=O — EC50 (viral replication, inhibitor; Huh7.5, GETYPE1B; 72 h, replicon): 2 nM
